Assay results pooled from the literature.
A part holds a random share of what one study measured.

Series 1
Target: Interferon regulatory factor 5, full length, phosphomimetic (IRF5, Homo sapiens, UniProt Q13568-2, residues 1-514, S451D/S453D/S456D/S462D)
Technique: protein-binding microarray
Form: double-stranded DNA, one strand shown
Sample: in vitro
Concentration: 940 nM top
Notes: 60-bp whole probe
With: salmon DNA 0.4 mg/ml
Reference: random background probes
Direction: higher = stronger binding
Shared flanks, not repeated: GCCTAGCAC … GTCTTGATTCGCTTGACGCTGCTG
Sequence | fitted relative affinity [z-score]
GACGGATCCCTTTTCCTGACGTGCTAG | 0.255
TTAGGTTTCTGTCTCGGTTAGTGCTAG | 8.31
TTAGGTTTCGGTCTCAGTTAGTGCTAG | 14.8
TCACATGTTTTTTTCTAACTGTGCTAG | 1.16
GACGATTACAGTCTCGAGACGTGCTAG | 1.03
CACGAACTGAGTTTCGAGACGTGCTAG | 3.19
GACGGGCTCCTTTTCCTGACGTGCTAG | 0.116
GAGGGTTTCGGTCTCGGGACGTGCTAG | 11
TTCGAATTCAGAATGGGAGAGTGCTAG | -0.377
TTAGGACCGCTTATCCTTTAGTGCTAG | -0.0663
GCCGATTTCAGTCTCGAGACGTGCTAG | 2.17
TTAGATTTCAGTCACGATTAGTGCTAG | 0.926
GCCGGACTGGACTATCGGGACGTGCTA | -0.35
GACGGTCTCGGTCTCCGGACGTGCTAG | 4.19
TTAGGATTCGGTTCCGGTTAGTGCTAG | 2.53
TTCTGTATGGGCATTTTTCTAGTGCTA | 0.273
TTAGGACTGCTACCGCTTTAGTGCTAG | -0.303
TTGGTTCTTATCCTTCCCCTCGTGCTA | 0.69
GGCGATCTCAGTTTCGAGACGTGCTAG | 4.89
TTGTGTCTGGGCATTTTTTTAGTGCTA | -0.596
CCAATTCTTTTTATGCTTTCGTGCTAG | 1.68

Series 2
Target: RNA binding protein fox-1 homolog 2, RRM domain, GST-SBP tag (RBFOX2, Homo sapiens, UniProt O43251-10, residues 100-194)
Technique: RNA Bind-n-Seq
Form: RNA
Sample: in vitro
Concentration: 365 nM
Notes: natural RNA segment, single round, ends assumed
Reference: no-protein control
Direction: higher = stronger binding
Target sequence (chain): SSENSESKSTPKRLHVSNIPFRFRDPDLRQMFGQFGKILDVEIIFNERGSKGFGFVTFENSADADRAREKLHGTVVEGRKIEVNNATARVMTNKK
Sequence | RBNS enrichment (R)
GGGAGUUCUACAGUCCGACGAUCGGUGUGGGAAGACCAAAGGAAGGAACGCUAACAAUUUCUCAUACUUAGAAACAAAAAGAGCUUUCCUUCUCCAGGAAUACUGAACAUGGGAGCUCUUGAAAUAUGUAGUAUGGAAUUCUCGGGUGCCAA | 0.411
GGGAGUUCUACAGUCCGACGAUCAUUUAAUAAGUCAUAUUUUUUCACAAAUAAGGAAAAAUCAUUUUAAUGAGAAUUUUAAGUAUUUGCAAUAAAUAUGUGUAUAUAGAUUGUAUGUAUUCAUAUAUUAUUUUUGGAAUUCUCGGGUGCCAA | 7
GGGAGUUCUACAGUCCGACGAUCUCUUCCAUCUGAAGUUUGACUUUUAUACCCAGCCAGAAGUUACAAAAUGAUGACCCACUCUGGGUAUAAGCUUGAUUUCCUUUGUUGAGACUUACCCUUCAUUGAAGAGAUGGAAUUCUCGGGUGCCAA | 0.437
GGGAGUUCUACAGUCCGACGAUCAGCGAGAUCGAGGCAGAGAAACGUAAUUUGUCCAUCACAUGGGGUUUGGAAAUAAAUAUAUUAUUUGACAAUAUUAUUGCAUUUUAAAUCUCCUUUCUCUUUUAUAGCUCUGGAAUUCUCGGGUGCCAA | 0.355
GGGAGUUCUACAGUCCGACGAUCAAUAAAGCAUUCAAUACACUAUAGAUUCCAAAACAUAACAUUGCACCAAAUAGAAAUGUAUAUUUUAUUAUGCAAUGCCUUAGUCAUAAACUGGGCUCAAACAAUCCUCAUGGAAUUCUCGGGUGCCAA | 0.479
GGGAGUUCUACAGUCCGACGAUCGGGUAAAGAGAUUUCUAUAGAACGAAUUUGGGAGGCCAGUGAGAUCGGCUCGGCAGGCACAGGCACUUAUUGUGUGAACCUGGCACUGGGUCCAGUCUCCAGGACCUAUCUGGAAUUCUCGGGUGCCAA | 0.449
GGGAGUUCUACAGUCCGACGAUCGAGCCAGCCUGCUAGAAGGCAGGAGUAGCCAGAAUGGAACAUCUGUGCAGAAAGUAGGCCAUUCUCAGCUAGGAUGUAGAAGAACUUGCAGGCUUUGAAACAGCCAACAGUGGAAUUCUCGGGUGCCAA | 0.505
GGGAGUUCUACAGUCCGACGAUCUAUUGUGGGUACUUUUGUGUGCUCAUUUGUGUUUUCCCCCCCUCCUACAACAUUUUUUUAACCCCAAAAUUAUAGCCUGAAUGUUCGCUUUUAGUCUGGCCAGGGAUCUGUGGAAUUCUCGGGUGCCAA | 0.656
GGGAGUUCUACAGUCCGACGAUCUUGUCAGCAGGAGCCGUGGUCCAGCCCAGCACCUGUGCUCUCGUAGCCGAGGCCAGCCGUGUUGGGAAGAGAGCCAUGCCAAGGGUCCAGGCUGCUGUAGUCCACCUGUGUGGAAUUCUCGGGUGCCAA | 0.382
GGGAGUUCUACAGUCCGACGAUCCAAAGUAUGAUGGCCCUGUAGCCUCUGACUAGUCCUGAAACAGAAGGCUGCACUCUAGGCUGAACCAUGCUAAAAGCCCAUGCUUAAAUAAAAAAUUAUGUCCAAAAUCUUGGAAUUCUCGGGUGCCAA | 0.671
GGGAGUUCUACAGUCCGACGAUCCAGGUGGCCCUCCACGUGAGGUCAUGGUCACAGCAUGGAGGCCUUGAGAGCCUGGCCAGGUGGCCCUCCGUGUGAGGUCAUGGUCACAGCAUAGUUUGGAGCUAGGGAGGUGGAAUUCUCGGGUGCCAA | 30.4
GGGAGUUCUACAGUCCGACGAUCUGUUAAAUGGAUACUAAUGAAUAGCAUAGCAUAGUGGGUAAGAGUUUAUAUAGCACAGGCUCUAGAAUCAGAUUAAGUAGGUUCAAAUACCAGUUCUGCCAGUAACUGGUUGGAAUUCUCGGGUGCCAA | 2.1

Series 3
Target: Histone acetyltransferase KAT6A, winged helix 1, GST fusion (KAT6A, Homo sapiens, UniProt Q92794, residues 1-85)
Technique: protein binding microarray
Form: double-stranded DNA, one strand shown
Sample: in vitro
Concentration: not given
Notes: 8-mer, flanks averaged, mean of 2 arrays, mostly near background
Reference: not given
Direction: higher = stronger binding
Residues (chain): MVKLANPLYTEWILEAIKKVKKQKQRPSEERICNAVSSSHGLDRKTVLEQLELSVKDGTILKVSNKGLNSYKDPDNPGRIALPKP
Sequence | E-score
CACTACGA | -0.0945
ATTTTCCC | -0.00604
ACTTGGGC | -0.0692
CAGACCTA | -0.0619
ATAGTAGA | -0.175
AGTTCAGC | -0.113
TACGGGCA | 0.29
TAACACGA | 0.0836
AAGGTAAT | -0.0259
ATCCCGGG | 0.353
GATCCCAC | -0.202
CGGATTCC | 0.248
GTTGAACA | 0.0101
GATCCGGA | -0.0974
GTATTAAC | 0.0338
AACTTTAA | 0.0102
AGGCAGAG | -0.19
ATCCCGCC | 0.409
AACAAGAC | -0.193
GAGACCGA | 0.0169
ATTCCGAC | 0.18
ATGGGCCA | -0.236
ACAGCAGT | -0.177
CAATAAGG | -0.226
GTCTAGAC | -0.059

Series 4
Target: Fragile X messenger ribonucleoprotein 1, C-terminal low-complexity region (Fmr1, Mus musculus, UniProt P35922)
Technique: RNA Bind-n-Seq
Form: RNA
Sample: in vitro
Concentration: 200 nM
Notes: whole 134-nt RNA, ends assumed
With: 150 mM LiCl
Reference: input library
Direction: higher = stronger binding
All molecules: 7-deaza-guanosine replaces G
Sequence | log2 enrichment
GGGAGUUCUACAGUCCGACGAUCGUCCUGUGCUACACAUCGUAUGUACCGAAUCGGGGUGGGGAAAAAGGGGAAAAAGGGGAAAGUAUUAUGUUACGCCGUUCGGAUCUGCACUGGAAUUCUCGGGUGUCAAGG | 0.915
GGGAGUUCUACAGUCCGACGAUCAGUCCUGUGCUACACAUCGUAUGUACCGAAUCGGGGUUUUUUUGGGGAGGGGUGGGGAAAGUAUUAUGUUACGCCGUUCGGAUCUGCACUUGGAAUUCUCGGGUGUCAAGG | -0.649
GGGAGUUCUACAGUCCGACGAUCUCCUGUGCUACACAUCGUAUGUACCGAAUCAAACCCCCCCAAAUUUUUUUAAACCCAAAAAAGUAUUAUGUUACGCCGUUCGGAUCUGCAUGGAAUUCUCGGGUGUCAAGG | 1.82
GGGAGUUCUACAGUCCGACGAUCGUCCUGUGCUACACAUCGUAUGUACCGAAUCGGGGUUUGGGGAGGGGAAAAAAAGGGGAAAGUAUUAUGUUACGCCGUUCGGAUCUGCACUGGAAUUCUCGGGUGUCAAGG | 0.266
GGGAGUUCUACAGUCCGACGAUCCCUCAAGUCCUGUGCUACACAUCGUAUGUACCGAAUCGGUUGGGGUUGGUUGGAAAGUAUUAUGUUACGCCGUUCGGAUCUGCACUUCCAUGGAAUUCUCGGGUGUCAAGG | 0.0555
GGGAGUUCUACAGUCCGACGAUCUGCUUCAUCGCCUUGUGCUCCUGCCCCUGGGAGCUGUGGAUCCCAGAUCCAGAUGACAGCCCACCUUGCUGGCAGGAUGCGCCAAUCCCCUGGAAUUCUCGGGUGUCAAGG | -0.0237
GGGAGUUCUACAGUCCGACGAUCCCUCAAGUCCUGUGCUACACAUCGUAUGUACCGAAUCGGGUGGGGUGGUGGGAAAGUAUUAUGUUACGCCGUUCGGAUCUGCACUUCCAGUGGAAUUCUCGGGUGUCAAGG | -0.271
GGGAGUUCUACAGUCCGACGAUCGUCCUGUGCUACACAUCGUAUGUACCGAAUCGGGAAAAAGGAAAAAGGGGAAAAAGGGGAAAGUAUUAUGUUACGCCGUUCGGAUCUGCAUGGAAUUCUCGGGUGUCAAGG | 0.668
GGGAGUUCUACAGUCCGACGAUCUUUUAUGUGGAGUUAUGAAGACCUACAGGCAGAGAGAGAAACAGGGGAGCAAGGUGCAAGAGUCCACAAAGGGACCUGAUGAAGCGAAGAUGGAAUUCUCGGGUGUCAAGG | -0.43
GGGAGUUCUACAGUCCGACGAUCUAACUUUAGAGGAGGAUCUGAUGGAUAUGGCAGUGGACGUGGAUUUGGGGAUGGCUAUAAUAGGUAUGGAGGAGGACCUGGAGGUGGCAAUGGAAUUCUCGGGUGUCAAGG | 0.04
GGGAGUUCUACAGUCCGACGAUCUGGACCUGGUGGCAUGCGGGGAGGAAGAGGUGGCCUCAUGGAUCGUGGUGGUCCCGGUGGAAUGUUCAGAGGUGGCCGUGGUGGAGACAGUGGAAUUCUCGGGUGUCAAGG | 0.104

Series 5
Target: Prothrombin, mature alpha-thrombin (F2, Homo sapiens, UniProt P00734)
Technique: aptamer microarray, sandwich
Form: DNA with 2'F-ANA
Sample: in vitro
Concentration: 200 nM
Notes: whole 15-mer aptamer, many near background
With: Cy3 exosite-II aptamer, 400 nM
Direction: higher = stronger binding
Sequence: GGTTGGTGTGGTTGG
Modification | mean fluorescence intensity
2'F-ANA at 1 5 8 9 10 11 14 | 47.8 a.u.
2'F-ANA at 1 2 3 4 7 | 223 a.u.
2'F-ANA at 1 3 5 6 9 10 12 | 47.8 a.u.
2'F-ANA at 3 4 6 7 8 9 11 12 14 15 | 274 a.u.
2'F-ANA at 2 8 10 11 12 14 | 85.2 a.u.
2'F-ANA at 5 8 9 10 11 12 14 | 45.3 a.u.
2'F-ANA at 1 2 3 5 6 7 8 9 10 11 | 50.5 a.u.
2'F-ANA at 4 5 6 7 8 9 10 12 | 79.3 a.u.
2'F-ANA at 2 3 5 10 13 | 51 a.u.
2'F-ANA at 1 6 8 10 12 14 15 | 48.3 a.u.
2'F-ANA at 1 5 8 12 13 15 | 86 a.u.
2'F-ANA at 1 2 4 5 7 8 10 12 14 15 | 50 a.u.
2'F-ANA at 2 3 10 11 14 15 | 238 a.u.
2'F-ANA at 1 2 3 4 5 6 7 8 9 12 15 | 108 a.u.
2'F-ANA at 2 3 5 6 9 10 12 13 14 15 | 50.2 a.u.
2'F-ANA at 3 7 8 14 | 773 a.u.
2'F-ANA at 2 3 8 9 10 12 13 | 401 a.u.
2'F-ANA at 1 2 3 9 10 11 13 | 61.3 a.u.
2'F-ANA at 2 3 5 6 7 8 10 15 | 50.6 a.u.
